Experimental data collected from several papers.
Parts stem from different laboratories: compare values within a part only. Positions count from the first letter of the parent shown.

Study 1 — method: RNA Bind-n-Seq; molecule type: RNA; matrix: in vitro; tested at: 365 nM; reference: no-protein control; reading: higher = stronger binding
Target: RNA binding protein fox-1 homolog 2, RRM domain, GST-SBP tag (RBFOX2, Homo sapiens, UniProt O43251-10, residues 100-194)
Setting: natural RNA segment, single round, ends assumed
All sequences stand within: GGGAGUUCUACAGUCCGACGAUC … UGGAAUUCUCGGGUGCCAA
Residues (chain): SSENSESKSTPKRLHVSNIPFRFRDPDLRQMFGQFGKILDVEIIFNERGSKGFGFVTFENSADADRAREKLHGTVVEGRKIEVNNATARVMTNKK
Oligonucleotide | RBNS enrichment (R)
AAUUCUUCUAUCCUCUUUCCCUCUUGCAUUAACCUUUGCUGAUCCUCAGGGACCACUCCCCCAGCACUUUUGUGUUUGGGUGAGGGAUGUUGGACAGAGCCCAUUUUUAU | 0.326
UUUUUGAAUUAUGAAAAAUAGCAAUAUUAAAAUUUAUAAUUGAGGAAUUUAUAGAAAGAUGACAUGCUUUUCUUAUAAUUGAUCACUUAAUUUUUUUAAUUAAAUACUCU | 1.25
GGAAUAAUAGUAAUAAAUGCACUUUUCACACUAAAAGUUUCUUUGUUCUCCUGUUAAGCCUAGAUCUUUCCCUAGUAGAUUGCAAACUCAACAGUCUGUGUGAUCCCAAA | 0.295
ACCCACGGGGUCACUUGAGGAAUCUGCCCCACUGCUUCUUGUGAGCAGAUCAGGACCCUUAGGAAAUGUGCAAAUGAGAUCCAACUCCAAUUCAACAAUCUGAGAGAGAA | 1.44
UGGAUGAGGCUAGUGACUCUGUGGGUGUCCUGAACAGUGAAGUUCACUGUCUCCAUGUGAUUGUUACAAGCGUUUGUGCAGUUCUACUACAAUGAUAUCUGUAUGUCACU | 0.337
CCUGCCCUAGAAACUCCAUAAAUGCUGUCACAACCCUAUCAUCGCUGAUGCUUUCUGCAUGUCAGCAGUCCAGGAGGAUGCUUUUUGUCUCUCUUUGCCUCCACUUUACA | 0.786
GAGUGCAGUGAGUGAGAGUCCUUGGGAGCGCGGCGCUGCCUGUAGCUGUGCCUGGGGAUGCACGUGGCCACGGGAUUUCAGUGGGACAGCGCUCCCACAGGGGCUGGGGG | 3.44
ACUGGGUGUUUAGUGCUAAACAGCCAGAACCACAGAGACAGUAUUGUAUGACCAAAGCAUUUGAUGCCAAAAUUUGACGUUAAAGUAAUGAUUUGAUUUCCUGCCCUGGU | 0.31
AUCACAUAGCUUCAAAAACUCCUCCAGUUUGUGACAACAUGACAGGUGUGACAGCAUGACAGGUUUGCUCUGCUUCUGCAGAGUGGGCCCCAGAGGUCACUUAGGACUGA | 1.05
UGGUGCUGUUUGAAGUUACAUCCCUUCUCUUUGGAGGAUUUAAAAAUGAUCUAUCUUUUGGUCCACUUGCCUAAUUUUCCCAUUUUCCACCCCUGGCCCCCUACCCUUAG | 0.773
UGGAGAAACCCUUCGCCAUUGCCAAGGAUAGAGAGCCUGGGGGACCUCAUCCCUCUAAGCAGCUGUCUGUGUGGGUCCUGUCAAUCCCCACACAGACGAAGGUAGCCAGU | 0.432
AUUAGACCCCAGGAUGGAGCGACCAGCAUGUCAUCCAUGUGGAAUCUUGGUGGCUUUGAGGACAUUCUGGAAAAUGCCACUGACCAGUGUGAACAAAAGGGAUGUGUUAU | 0.957

Study 2 — method: RNA Bind-n-Seq; molecule type: RNA; matrix: in vitro; tested at: 200 nM; setting: whole 134-nt RNA, ends assumed; with: 150 mM KCl; reference: input library; reading: higher = stronger binding
Target: Ras GTPase-activating protein-binding protein 1, full length (G3BP1, Homo sapiens, UniProt Q13283)
UniProt Q13283, sequence (whole entry, looked up): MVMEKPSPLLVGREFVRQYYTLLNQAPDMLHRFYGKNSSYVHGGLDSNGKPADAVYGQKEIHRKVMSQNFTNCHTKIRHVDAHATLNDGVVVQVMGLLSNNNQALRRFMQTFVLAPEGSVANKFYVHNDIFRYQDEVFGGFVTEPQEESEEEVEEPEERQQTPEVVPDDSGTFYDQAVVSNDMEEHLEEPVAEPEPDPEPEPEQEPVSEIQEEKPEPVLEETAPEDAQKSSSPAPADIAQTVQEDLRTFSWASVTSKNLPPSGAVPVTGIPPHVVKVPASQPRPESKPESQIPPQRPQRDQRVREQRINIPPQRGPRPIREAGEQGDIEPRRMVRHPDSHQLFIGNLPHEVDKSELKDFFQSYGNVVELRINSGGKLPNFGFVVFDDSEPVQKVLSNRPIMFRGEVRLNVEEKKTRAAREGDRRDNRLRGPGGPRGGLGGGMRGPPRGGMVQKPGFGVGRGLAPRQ
All sequences stand within: GGGAGUUCUACAGUCCGACGAUC … UGGAAUUCUCGGGUGUCAAGG
Oligonucleotide | log2 enrichment
UUGCGCCUGUCCCGGGUGAAGUGUGUCGGCCUCUCCGCACGCACCACGGAGACCAGCAGUGCAGUCAUGUGCCUGGACCUUGCAGCUUCC | -0.265
CACAGACAACACGCACCCACACAGACACAGAGGGAAGGGGUUGGGAUGGGGACAGGGUGCACAGCAGGGCGGGGUAGGACCCCAGAAACU | 1.94
ACCAUGCAGGUGGGCAUCUUUGGGAAGUGGGGCAAGGGGGGGAUAGGGAGGGGGGUAACACUUUGGGAACAGCUGGUCCCAGGUCGUUUC | 1.32
AAGUCCUGUGCUACACAUCGUAUGUACCGAAUCGGGGAGGGGAAAAAGGGGAGGGGAAAGUAUUAUGUUACGCCGUUCGGAUCUGCACUU | 0.843
UGGCCCGGGUGGCAUGCGGGGAGGAAGAGGUGGCCUCAUGGAUCGUGGUGGUCCCGGUGGAAUGUUCAGAGGUGGCCGUGGUGGAGACAG | 0.817
AGUCCUGUGCUACACAUCGUAUGUACCGAAUCGGGGAAAAGGGGAAAAGGGGAAAAGGAAAGUAUUAUGUUACGCCGUUCGGAUCUGCAC | -0.172
CACAGACAACACGCACCCACACAGACACAGAGGGAAGGGGUUGGGAUGGGGACAGGGUGCACAGCAGGGCGGGGUAGAAACCCAGCCCCU | 1.85
UCCUCAAGUCCUGUGCUACACAUCGUAUGUACCGAAUCGGGGAGGAGGAGGGAAAGUAUUAUGUUACGCCGUUCGGAUCUGCACUUCCAG | 0.346
UGGCCCUGGUGGCAUGCGGGGAGGAAGAGGUGGCCUCAUGGAUCGUGGUGGUACCGGUGGAAUGUUCAGAGGUGGCCGUGGUGGAGACAG | 0.254
UCCUGUGCUACACAUCGUAUGUACCGAAUCGGGAAAGGGAAAAAAAGGGUUUUUUUGGGAAAGUAUUAUGUUACGCCGUUCGGAUCUGCA | -0.431
CUCAAGUCCUGUGCUACACAUCGUAUGUACCGAAUCGGAAGGGAAGGGGAAGGGAAAGUAUUAUGUUACGCCGUUCGGAUCUGCACUUCC | 0.715
CAAGUCCUGUGCUACACAUCGUAUGUACCGAAUCGGAAAAAAAGGUUUUUGGAGGAAAGUAUUAUGUUACGCCGUUCGGAUCUGCACUUC | -1.21
CUCAAGUCCUGUGCUACACAUCGUAUGUACCGAAUCGGUUGGGUUGGGUUGGGAAAGUAUUAUGUUACGCCGUUCGGAUCUGCACUUCCA | 0.785
UCCUGUGCUACACAUCGUAUGUACCGAAUCGGGGAAAAAGGGGAAAAAGGGGAAAAAGGGAAAGUAUUAUGUUACGCCGUUCGGAUCUGC | 0.181

Study 3 — target: CCNB2, cyclin fold, Cln2 fusion (human); method: yeast growth competition, sequencing; matrix: yeast; setting: weak parent motif; reference: not given; reading: higher = stronger binding
Parent: KIF20B docking peptide (human); KRAKRKLYTSEIS; partner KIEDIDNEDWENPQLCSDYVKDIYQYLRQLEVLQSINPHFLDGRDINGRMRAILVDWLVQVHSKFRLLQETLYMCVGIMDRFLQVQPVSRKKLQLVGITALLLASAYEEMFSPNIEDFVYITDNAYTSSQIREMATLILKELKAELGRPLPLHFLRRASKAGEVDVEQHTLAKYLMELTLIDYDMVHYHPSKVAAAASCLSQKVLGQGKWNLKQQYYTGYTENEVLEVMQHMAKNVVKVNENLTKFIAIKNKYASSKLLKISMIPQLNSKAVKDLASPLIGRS
Substitution | normalised enrichment score
I12A | 0.603
K6A | 0.813
Y8A | 0.462
T9A | 0.589
K4A | 0.541
R2A | 0.369

Study 4 — method: RNA Bind-n-Seq; molecule type: RNA; matrix: in vitro; tested at: not given; setting: RNA with constant flanks, ends assumed; reference: input RNA pool; reading: higher = stronger binding
Target: RING finger protein unkempt homolog, zinc fingers 1-6, GST-SBP tag (UNK, Homo sapiens, UniProt Q9C0B0, residues 30-357)
UniProt Q9C0B0, sequence (30-357, looked up): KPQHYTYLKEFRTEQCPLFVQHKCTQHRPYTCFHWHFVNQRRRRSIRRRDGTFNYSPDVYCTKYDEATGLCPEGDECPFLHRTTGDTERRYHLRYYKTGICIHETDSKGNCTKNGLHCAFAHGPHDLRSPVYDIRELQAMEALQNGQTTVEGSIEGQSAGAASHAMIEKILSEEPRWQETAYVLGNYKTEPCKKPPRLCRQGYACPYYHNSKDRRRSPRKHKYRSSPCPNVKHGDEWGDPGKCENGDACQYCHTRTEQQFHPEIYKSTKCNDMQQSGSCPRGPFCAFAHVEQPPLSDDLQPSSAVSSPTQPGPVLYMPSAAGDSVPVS
All sequences stand within: GGGAGUUCUACAGUCCGACGAUC … CAACAGAGGAUUGAGCAUCA
Oligonucleotide | bound/input enrichment
CGGGAACUCAAACAUCUGAAUCAUCUUGAUAUCUCAGAUGAUAAACAGUUUACAUCAGACACCGCUCUUCGCUUACUAGAACAAAAAGACAUCCUACCUAACCUUGUUUCUCUGGAUGUU | 0.289 ratio
UUCUUCUUCUUUGAUUCAGUUCAAGUCGUUUUCACAAUAUGUACAGCAGUUCUUGCAACAACCGCUUUUGCUUUUCUUCUUCUCCCGAUGUGCCAGUAUUUAACAAGGCCCUGCUCACCU | 0.511 ratio
CCAAUGGAACCACAAGGGACUUUAGAUAUCACUCAGCAAGAUACUGCCAAAGGUGAUCAACCCGAAAGAAUUUCUAAUGGACCUGUAUUAACUUUGGGUGGUUCAUCUGUGAGCAGUAUA | 0.182 ratio
AAUGCUGUUCCUUUGGGAACCACGGCCAAAGAAGAGAUGGAGCGGUUCUGGAAUAAGAAUACCGGUUCAAACCGUCCUCUGUCUCCCCACAUUACUAUCUACAGUUGGUCUCUUCCCAUG | 0.109 ratio
GAAGGUUUCUUUACCAACGGUUUGACUCUUGGAGCAAAGAAGUGUUCUGUGAUCAGAGACCGCCUAUACGUUGAUGGUGACUGCACAAUGGACAUCCGGACAAAGAGUCAAGGUGGGGAG | 0.194 ratio
CUCAACCAUCCAAAUGUAAUUAAAUACUAUGCAUCAUUCAUUGAGGAUAAUGAGCUGAACACCGUUUUGGAGUUAGCAGAUGCUGGUGACCUCUCCAGAAUGAUAAAGCACUUUAAGAAA | 0.192 ratio
AUCUUUAUCUCACAAGAUGAAAUACAGUCAUUUAUGGCUAAUAACCAGUCUUUCUACAGCAACCGAGAACAAUACCGACAGCAUCUGAAGGAGAAAUUUAAUAAAUACUGCCGCUUAAAU | 0.225 ratio
UUCCCAAAUCGUUUUUCCAAUCGCCCAAUAACUGGACCUCACAUCGCAUACACAGAGGCUGUCCGCGACACUCAGAUCAUGCUGAAAUGGACGUAUGUUCCAUCAAGUAACAAUAAUACU | 0.392 ratio
